Published values of several laboratories.
Protocols differ between the studies behind these lines.
Organism: Acinetobacter baumannii

CC(=O)N[C@H](CCCCN)C(=O)N[C@H](CC(C)C)C(=O)N[C@H](CCCCN)C(=O)N[C@H](CO)C(=O)N[C@H](CC(C)C)C(=O)N[C@H](CC(C)C)C(=O)N[C@H](CCCCN)C(=O)N[C@@H](C(=O)N[C@H](CC(C)C)C(=O)N[C@H](CO)C(=O)N[C@H](CCCCN)C(=O)N[C@H](C)C(=O)N[C@H](CCCCN)C(=O)N[C@H](CCCCN)C(=O)N[C@H](CCCCN)C(=O)N[C@H](CCCCN)C(=O)N[C@H](CC(C)C)C(=O)N[C@H](CCCCN)C(=O)N[C@@H](C(=O)N[C@H](CC(C)C)C(=O)N[C@H](CC(C)C)C(=O)N[C@H](CCCCN)C(=O)N[C@H](C)C(=O)N[C@H](CC(C)C)C(=O)N[C@H](CO)C(=O)N[C@H](CCCCN)C(N)=O)[C@H](C)O)[C@H](C)O
MIC (649, Mueller-Hinton broth; 24 h, 37 °C): 0.3 µM

CNS(=O)(=O)c1ccc(-n2nnc(/C(C)=N/NC(=N)N)c2C)cc1
MIC (microbial growth, broth dilution; AB5075): > 64 µg/mL

C[C@H]1COc2c(N3CCN(C)CC3)c(F)cc3c(=O)c(C(=O)N[C@@H](CCCNC(=N)N)C(=O)N[C@@H](Cc4ccc(-c5ccccc5)cc4)C(=O)N[C@@H](CCCNC(=N)N)C(=O)N[C@@H](Cc4ccc(-c5ccccc5)cc4)C(=O)N[C@@H](CCCNC(=N)N)C(N)=O)cn1c23
MIC (broth microdilution; ATCC 1799): 2.5 µM

CC(=O)N[C@H](CCCCN)C(=O)N[C@H](CC(C)C)C(=O)N[C@H](CCCCN)C(=O)N[C@H](CO)C(=O)N[C@H](CC(C)C)C(=O)N[C@H](CC(C)C)C(=O)N[C@H](CCCCN)C(=O)N[C@@H](C(=O)N[C@H](CC(C)C)C(=O)N[C@H](CO)C(=O)N[C@H](CCCCN)C(=O)N[C@H](C)C(=O)N[C@H](CCCCN)C(=O)N[C@H](CCCCN)C(=O)N[C@H](CCCCN)C(=O)N[C@H](CC(C)C)C(=O)N[C@H](CC(C)C)C(=O)N[C@H](CCCCN)C(=O)N[C@@H](C(=O)N[C@H](C)C(=O)N[C@H](CC(C)C)C(=O)N[C@H](CCCCN)C(=O)N[C@H](C)C(=O)N[C@H](CC(C)C)C(=O)N[C@H](CO)C(=O)N[C@H](CCCCN)C(N)=O)[C@H](C)O)[C@H](C)O
MIC (884, Mueller-Hinton broth; 24 h, 37 °C): 0.7 µM

COc1ccc2ccc3c(c2c1)C=[N+]1C2CCCCC2[N+]2=Cc4c(F)cccc4[O][Au-]21[O]3.F[P-](F)(F)(F)(F)F (stereo not shown)
MIC (bacterial growth, broth microdilution; carbapenem-resistant clinical isolate; 24 h): > 20 µM

CC(C)C[C@H](NC(=O)[C@H](CC(N)=O)NC(=O)[C@H](CCCNC(=N)N)NC(=O)[C@@H](CC(C)C)NC(=O)[C@H](Cc1ccccc1)NC(=O)[C@H](CC(=O)O)NC(=O)[C@H](CCCCN)NC(=O)[C@@H](CC(C)C)NC(=O)[C@H](CCCNC(=N)N)NC(=O)[C@H](CCC(N)=O)NC(=O)[C@@H](NC(=O)[C@@H](CC(C)C)NC(=O)[C@H](CCCNC(=N)N)NC(=O)[C@H](CCCCN)NC(=O)[C@H](Cc1ccc(-c2ccccc2)cc1)NC(=O)CN)C(C)C)C(=O)N[C@H](C(N)=O)C(C)C
MIC (broth microdilution; B2367-12): 3.1 µM

Nc1nc(-c2ccc3nc(-c4ccccc4)[nH]c3c2)c[nH]1
MIC (microbial growth, broth dilution; AB5075): ≥ 200 µM

COc1ccc2ccc3c(c2c1)C=[N+]1C2CCCCC2[N+]2=Cc4ccc(-c5ccccc5)cc4[O][Au-]21[O]3.F[P-](F)(F)(F)(F)F (stereo not shown)
MIC (bacterial growth, broth microdilution; carbapenem-resistant clinical isolate; 24 h): > 20 µM

NC[C@H]1O[C@H](O[C@H]2[C@H](OCCCCCCCCCCCCn3cc(CNc4nc(NCc5cn(CCCCCCCCCCCCO[C@@H]6[C@@H](O)[C@H](N)C[C@H](N)[C@H]6O[C@H]6O[C@H](CN)[C@@H](O)C[C@H]6N)nn5)nc(NCc5cn(CCCCCCCCCCCCO[C@@H]6[C@@H](O)[C@H](N)C[C@H](N)[C@H]6O[C@H]6O[C@H](CN)[C@@H](O)C[C@H]6N)nn5)n4)nn3)[C@@H](O)[C@H](N)C[C@@H]2N)[C@H](N)C[C@@H]1O
MIC (microbial growth, broth dilution; ATCC17978): 32 µg/mL

NC[C@@H]1O[C@H](O[C@H]2[C@@H](O)[C@H](O[C@@H]3[C@@H](O)[C@H](N)C[C@H](N)[C@H]3O[C@H]3O[C@H](CO)[C@@H](SCCF)[C@H](O)[C@H]3N)O[C@@H]2CO)[C@H](N)[C@@H](O)[C@@H]1O
MIC (reference strain): 8 to 16 µg/mL

COc1ccc2c(c1)C=[N+]1C3CCCCC3[N+]3=Cc4c(ccc5ccc(OC)cc45)[O][Au-]13[O]2.F[P-](F)(F)(F)(F)F (stereo not shown)
MIC (bacterial growth, broth microdilution; carbapenem-resistant clinical isolate; 24 h): > 20 µM

CC(C)C(O)C(NC(=O)[C@H](Cc1ccc(O)cc1)NC(=O)C(Cc1ccc(O)c(Cl)c1)[N+](C)(C)C)C(=O)N[C@@H](C)C(=O)O (stereo partly shown)
MIC (ATCC 19606): > 100 µM

CCOC(=O)c1ccc2c(c1)n(CC)[c]([Au-][Cl])[n+]2CC
MIC (broth dilution; DSM 30007; 20 h, 37 °C): 16.7 µM

NC[C@@H]1O[C@H](O[C@H]2[C@@H](O)[C@H](O[C@@H]3[C@@H](O)[C@H](N)C[C@H](N)[C@H]3O[C@H]3O[C@H](CO)[C@@H](CCO)[C@H](O)[C@H]3N)O[C@@H]2CO)[C@H](N)[C@@H](O)[C@@H]1O
MIC (reference strain): 2 to 4 µg/mL

CC(C)C[C@H](NC(=O)[C@H](CC(N)=O)NC(=O)[C@H](CCCNC(=N)N)NC(=O)[C@@H](CC(C)C)NC(=O)[C@H](Cc1ccccc1)NC(=O)[C@H](CC(=O)O)NC(=O)[C@H](CCCCN)NC(=O)[C@@H](CC(C)C)NC(=O)[C@H](CCCNC(=N)N)NC(=O)[C@H](CCC(N)=O)NC(=O)[C@@H](NC(=O)[C@@H](CC(C)C)NC(=O)[C@H](CCCNC(=N)N)NC(=O)[C@H](CCCCN)NC(=O)[C@H](Cc1ccc(C(F)(F)F)cc1)NC(=O)CN)C(C)C)C(=O)N[C@H](C(N)=O)C(C)C
MIC (broth microdilution; B2367-12): 3.1 to 6.2 µM

CC(C)C[C@@H](NC(=O)[C@@H](CCCCN)NC(=O)[C@@H](CCCCNC(=O)[C@@H](CC(C)C)NC(=O)[C@@H](CCCCN)NC(=O)[C@@H](CCCCNC(=O)[C@@H](CC(C)C)NC(=O)[C@@H](CCCCN)NC(=O)[C@@H](CCCCNC(=O)[C@@H](CC(C)C)NC(=O)[C@H](N)CCCCN)NC(=O)[C@@H](CC(C)C)NC(=O)[C@H](N)CCCCN)NC(=O)[C@@H](CC(C)C)NC(=O)[C@@H](CCCCN)NC(=O)[C@@H](CCCCNC(=O)[C@@H](CC(C)C)NC(=O)[C@H](N)CCCCN)NC(=O)[C@@H](CC(C)C)NC(=O)[C@H](N)CCCCN)NC(=O)[C@@H](CC(C)C)NC(=O)[C@@H](CCCCN)NC(=O)[C@@H](CCCCNC(=O)[C@@H](CC(C)C)NC(=O)[C@@H](CCCCN)NC(=O)[C@@H](CCCCNC(=O)[C@@H](CC(C)C)NC(=O)[C@H](N)CCCCN)NC(=O)[C@@H](CC(C)C)NC(=O)[C@H](N)CCCCN)NC(=O)[C@@H](CC(C)C)NC(=O)[C@@H](CCCCN)NC(=O)[C@@H](CCCCNC(=O)[C@@H](CC(C)C)NC(=O)[C@H](N)CCCCN)NC(=O)[C@@H](CC(C)C)NC(=O)[C@H](N)CCCCN)C(N)=O
MIC (broth microdilution; ATCC 19606; 37 °C): 8 µg/mL

O=C(NCCNCCO)c1cn(Cc2ccccc2)c2c(Cl)c(OCc3ccc(C(F)(F)F)cc3)c(Cl)cc2c1=O
MIC (ATCC 19606; ≥80% growth inhibition): > 32 µg/mL

Cc1ccc(-c2nc3ccc(-c4c[nH]c(N)n4)cc3[nH]2)cc1
MIC (microbial growth, broth dilution; AB5075): ≥ 200 µM

CC(C)C[C@@H]1NC(=O)[C@@H](CC(C)C)NC(=O)[C@H](CCN)NC(=O)[C@@H](NC(=O)[C@H](CCN)NC(=O)[C@@H](N)[C@@H](C)O)CCNC(=O)[C@H]([C@@H](C)O)NC(=O)[C@H](CCN)NC(=O)[C@H](CCN)NC1=O
MIC (broth microdilution; ATCC 9955, CAMHB with polysorbate-80; 16 h): > 64 µg/mL

CC1=C[C@@]2(C)C(=C(C)[C@H]3[C@@H]4C[C@H](C)C[C@H](C)[C@H]4[C@H]4Oc5ccc(cc5)C[C@]5(O)NC(=O)[C@]6(O[C@H]65)C(=O)[C@@H]2[C@@H]43)[C@H]1C
MIC (broth microdilution; ATCC BAA-1605; added: colistin 0.1 µM): 3.1 µM

c1ccc(CN2CCOCCOCCN(CCCCCCCCCCN3CCOCCOCCN(CCCCCCCCCCN4CCOCCOCCN(Cc5ccccc5)CCOCCOCC4)CCOCCOCC3)CCOCCOCC2)cc1
MIC (meropenem-resistant): 26 µM

CC[P+](CC)(CC)[Au-][S][C@@H]1O[C@H](COC(C)=O)[C@@H](OC(C)=O)[C@H](OC(C)=O)[C@H]1NC(=O)C(Cl)(Cl)Cl
MIC (NCTC 13420): 82 µM

COc1ccc2ccc3c(c2c1)C=[N+]1C2CCCCC2[N+]2=Cc4cc(C(C)(C)C)cc(C(C)(C)C)c4[O][Au-]21[O]3.F[P-](F)(F)(F)(F)F (stereo not shown)
MIC (bacterial growth, broth microdilution; carbapenem-resistant clinical isolate; 24 h): > 20 µM

C/C(=N\NC(=N)N)c1nnn(-c2ccc(S(=O)(=O)NC3CCCC3)cc2)c1C
MIC (microbial growth, broth dilution; AB5075): 32 µg/mL

CO[C@@H](C(N)=O)[C@H](NC(=O)c1ccc(NC(=O)c2ccc([N+](=O)[O-])cc2)cc1)C(=O)Nc1ccc(C(=O)Nc2ccc(C(=O)Nc3ccc(C(=O)O)cc3)c(O)c2OC(C)C)cc1
MIC (microbial growth; DSM30008): 1 µg/mL

Repeated from above:
C/C(=N\NC(=N)N)c1nnn(-c2ccc(S(=O)(=O)NC3CCCC3)cc2)c1C
MIC (microbial growth, broth dilution; AB5075): 32 µg/mL

CO[C@@H](C(N)=O)[C@H](NC(=O)c1ccc(NC(=O)c2ccc([N+](=O)[O-])cc2)cc1)C(=O)Nc1ccc(C(=O)Nc2ccc(C(=O)Nc3ccc(C(=O)O)cc3)c(O)c2OC(C)C)cc1
MIC (microbial growth; DSM30008): 1 µg/mL
